Assay results pooled from the literature.
Parts stem from different laboratories: compare values within a part only. Substitutions count along the parent as printed.

Series 1
Target: Interferon regulatory factor 5, full length, phosphomimetic (IRF5, Homo sapiens, UniProt Q13568-2, residues 1-514, K96S/S451D/S453D/S456D/S462D)
Technique: protein-binding microarray
Molecule type: double-stranded DNA, one strand shown
Sample: in vitro
Concentration: 250 nM
Setting: 60-bp whole probe
Together with: salmon DNA 0.4 mg/ml
Relative to: random background probes
Reading: higher = stronger binding
Constant ends, left off below: GCCTAGCAC … GTCTTGATTCGCTTGACGCTGCTG
| Sequence | log fluorescence [z-score] |
| --- | --- |
| TTAGGTTTGCTTTCCCTTTAGTGCTAG | 1.58 |
| GACGGTTTCGGGTTTCGTGACGTGCTA | 7.21 |
| GTCGGTTTCCTTTTCCTGACGTGCTAG | 2.05 |
| TTAGGACTGCTCATCCTTTAGTGCTAG | -0.271 |
| TTAGGTCTCGGTATCGGTCAGTGCTAG | 4.42 |
| TCAACTCTTTATTTAAGACTGTGCTAG | 0.375 |
| TTAGATAACGGGTATCGATTAGTGCTA | 4.05 |
| TTAGATATCGGGACTAGATTAGTGCTA | 1.28 |
| AGGGCAGGGAGGGGGACAGCGTGCTAG | 1.25 |
| GACGGTTTCTTTCTCCTGACGTGCTAG | 2.09 |
| TTAGGTTTTGACTTTCGGTTAGTGCTA | 9.82 |
| TTAGGTATCGGTATCGGGTAGTGCTAG | 8.18 |
| AAGCCATTGGTCTTCACTTGGTGCTAG | -0.00845 |
| TTAAGACTGCTTTTCCTTTAGTGCTAG | 0.681 |
| GGGAAAATGGCTTTGCAGATGTGCTAG | -0.351 |
| TTAGGTTTCAGTATCGGTTAGTGCTAG | 9.49 |
| GACGGTTCCGGATTCGGGACGTGCTAG | 0.131 |
| GACGGACTGGAGACTGGGGACGTGCTA | -0.561 |
| TTAGAACCGGGGTTTCGATTAGTGCTA | 6.24 |
| GACGGACTGCTTCTCCAGACGTGCTAG | -0.486 |
| TTAGGTCTCGGTGTCGGTTAGTGCTAG | 0.619 |
| TCTCTTTTCACTTTCTTTACGTGCTAG | 4 |
| GACGGTTTCGACCTTCGGGACGTGCTA | 4.68 |

Series 2
Target: Histone acetyltransferase KAT6A, winged helix 1, GST fusion (KAT6A, Homo sapiens, UniProt Q92794, residues 1-85)
Technique: protein binding microarray
Molecule type: double-stranded DNA, one strand shown
Sample: in vitro
Concentration: not given
Setting: 8-mer, flanks averaged, mean of 2 arrays, mostly near background
Relative to: not given
Reading: higher = stronger binding
Target sequence (chain): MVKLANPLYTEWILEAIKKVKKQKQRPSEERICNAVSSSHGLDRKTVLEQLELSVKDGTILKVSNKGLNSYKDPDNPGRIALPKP
| Sequence | E-score |
| --- | --- |
| ATTATCGC | 0.0222 |
| ACGGTGGA | 0.0233 |
| AAAATCCG | 0.0923 |
| ACTCGAAT | -0.203 |
| AACTTAAT | -0.136 |
| TAGGCCAA | -0.15 |
| GGATCCAA | -0.0663 |
| AAGGTGGG | -0.226 |
| CAGTTAAA | -0.237 |
| ACCCCGCC | 0.417 |
| AAAACAGC | -0.0287 |
| CAATGGCG | 0.218 |
| AATGTTGG | -0.148 |
| ATTAAAAA | -0.0914 |
| CCTTTCGC | 0.199 |
| GGCACGTA | -0.00121 |
| CAGAAGAA | -0.144 |
| ATCGCTCC | 0.124 |
| CCCGGAGA | 0.148 |
| ATTCGTCG | -0.0986 |
| CGATCAGA | -0.0115 |
| GCTGACGA | -0.141 |

Series 3
Target: Prothrombin, mature alpha-thrombin (F2, Homo sapiens, UniProt P00734)
Technique: aptamer microarray, sandwich
Molecule type: DNA with 2'F-ANA
Sample: in vitro
Concentration: 200 nM
Setting: whole 15-mer aptamer, many near background
Together with: Cy3 exosite-II aptamer, 400 nM
Reading: higher = stronger binding
Sequence: GGTTGGTGTGGTTGG
| Modification | mean fluorescence intensity |
| --- | --- |
| 2'F-ANA at 1 4 8 10 11 12 | 55 a.u. |
| 2'F-ANA at 1 3 4 5 6 8 10 12 14 15 | 61.9 a.u. |
| 2'F-ANA at 1 2 5 7 13 15 | 54.1 a.u. |
| 2'F-ANA at 2 6 7 8 12 13 14 15 | 167 a.u. |
| 2'F-ANA at 2 3 4 5 6 10 11 12 14 15 | 67.2 a.u. |
| 2'F-ANA at 5 6 7 9 11 12 13 15 | 79.5 a.u. |
| 2'F-ANA at 3 4 9 12 13 14 15 | 349 a.u. |
| 2'F-ANA at 4 5 8 | 75.4 a.u. |
| 2'F-ANA at 1 3 4 6 7 8 10 11 13 14 15 | 54.3 a.u. |
| 2'F-ANA at 2 3 4 6 9 11 13 14 15 | 182 a.u. |
| 2'F-ANA at 1 2 3 4 6 7 9 11 12 15 | 224 a.u. |
| 2'F-ANA at 3 4 5 9 12 15 | 189 a.u. |
| 2'F-ANA at 1 3 4 6 9 12 14 15 | 78.2 a.u. |
| 2'F-ANA at 1 2 3 9 10 12 14 15 | 60.5 a.u. |
| 2'F-ANA at 3 4 5 10 11 | 56.6 a.u. |
| 2'F-ANA at 2 6 7 8 9 10 11 12 | 138 a.u. |
| 2'F-ANA at 2 3 6 11 12 15 | 792 a.u. |
| 2'F-ANA at 3 5 6 7 9 10 11 13 14 15 | 51.4 a.u. |
| 2'F-ANA at 3 7 9 12 15 | 1470 a.u. |
| 2'F-ANA at 4 6 7 9 | 262 a.u. |
| 2'F-ANA at 1 2 3 7 9 11 13 15 | 153 a.u. |
| 2'F-ANA at 2 4 5 9 10 11 12 13 14 15 | 43.5 a.u. |
| 2'F-ANA at 1 2 6 9 10 11 14 15 | 50.9 a.u. |
| 2'F-ANA at 5 6 8 12 15 | 163 a.u. |
| 2'F-ANA at 4 5 7 12 | 173 a.u. |

Series 4
Target: CCNE2, cyclin fold, Cln2 fusion (human)
Technique: yeast growth competition, sequencing
Sample: yeast
Setting: strong parent motif
Relative to: not given
Reading: higher = stronger binding
Starting sequence: E2F1 docking peptide (human); PPVKRRLDLETDH
| Change | normalised enrichment score |
| --- | --- |
| H13E | 0.284 |
| D12Y | 3.14 |
| R5P | -0.721 |
| D8P | 0.578 |
| P2C | 1.31 |
| P2K | 1.08 |
| K4I | 0.343 |
| L7K | 0.677 |
| D12M | 2.08 |
| P1D | 0.276 |
| H13Q | 1.14 |
| V3H | 0.776 |
| D8T | 1.78 |
| P2V | 0.256 |
| P1L | 2.75 |
| L7E | -0.37 |
| K4S | 0.412 |
| R5G | -0.323 |
| D12L | 1.99 |
| P1Y | 2.19 |
| D12E | 1.24 |
| D8V | 2.72 |
| V3Y | 1.25 |
| E10W | 1.23 |
| P1I | 1.24 |

Series 5
Target: Fragile X messenger ribonucleoprotein 1, C-terminal low-complexity region (Fmr1, Mus musculus, UniProt P35922)
Technique: RNA Bind-n-Seq
Molecule type: RNA
Sample: in vitro
Concentration: 200 nM
Setting: whole 134-nt RNA, ends assumed
Together with: 150 mM LiCl
Relative to: input library
Reading: higher = stronger binding
Library: 7-deaza-guanosine replaces G
Constant ends, left off below: GGGAGUUCUACAGUCCGACGAUC … UGGAAUUCUCGGGUGUCAAGG
| Sequence | log2 enrichment |
| --- | --- |
| UGGGAGGUGGAUUUUGUUUAUUUUUUUAGCUCAAUUCCAGGGGUGGGAAUUUUUUUUUAAUAUGUGUCAUGAAUAAAGUUGUUUUUGAAA | 0.628 |
| UCCUGUGCUACACAUCGUAUGUACCGAAUCGGAAAAAAGGGGAAAAAAGGGAAAAAAGGAAAGUAUUAUGUUACGCCGUUCGGAUCUGCA | -0.37 |
| UAGGGUUCAGGAUAAGUUUGAGGUGCUGAAUUACACAAGCAUUCCUAUCUUUCUCCCGGAAGUCACCAUUGGAGCUCAUCAGACUGACCG | -0.946 |
| UCCUUUGUGUUUACAAAAGCACUGACCCUUUACCUUUUCUUUAGCAAGAAGAAUGGAAUGAACAUAAUGCCAAAAUAAUUAAAUAUAUAA | 2.28 |
| ACUGAGGUACUGCCCUCCCCUGCCCCCUACCCUCUCCCUUGUCCCUCUACCCCGUUCCUCCCCUUCCCUCCAUUCCCUUUCCCCAACCUG | 1.98 |
| GCAGGAAGUAAAAACAAAUGGAACUGCUUCGGAUAGUGGCAGGGGUGGGGGUUGCUAAGGAAAGGGUGGGAUGGGAGUGGGUAAAGAGUU | 1.55 |
| AGUCCUGUGCUACACAUCGUAUGUACCGAAUCGGGGUUUUUGGGGUGGGGUUUGGGGAAAGUAUUAUGUUACGCCGUUCGGAUCUGCACU | -0.965 |
| CACAGACAACACGCACCCACACAGACACAGAGGGAAAAAGUUGGGAUGGGGACAGGGUGCACAGCAGGGCGGGGUAGGACCCCAGCCCCU | -1.36 |
| AGUCCUGUGCUACACAUCGUAUGUACCGAAUCGGGGUGGGGUUUGGGGAAAAAGGGGAAAGUAUUAUGUUACGCCGUUCGGAUCUGCACU | -1.23 |
| CUCAAGUCCUGUGCUACACAUCGUAUGUACCGAAUCGGAAGGGGAAGGGGAAGGAAAGUAUUAUGUUACGCCGUUCGGAUCUGCACUUCC | -0.192 |
| CAAGUCCUGUGCUACACAUCGUAUGUACCGAAUCGGUUUUGGGGUUUUGGUUUUGGAAAGUAUUAUGUUACGCCGUUCGGAUCUGCACUU | -1.89 |

Series 6
Target: Sal-like protein 4, full length isoform A (SALL4, Homo sapiens, UniProt Q9UJQ4, residues 1-1053)
UniProt Q9UJQ4, sequence (whole entry, looked up): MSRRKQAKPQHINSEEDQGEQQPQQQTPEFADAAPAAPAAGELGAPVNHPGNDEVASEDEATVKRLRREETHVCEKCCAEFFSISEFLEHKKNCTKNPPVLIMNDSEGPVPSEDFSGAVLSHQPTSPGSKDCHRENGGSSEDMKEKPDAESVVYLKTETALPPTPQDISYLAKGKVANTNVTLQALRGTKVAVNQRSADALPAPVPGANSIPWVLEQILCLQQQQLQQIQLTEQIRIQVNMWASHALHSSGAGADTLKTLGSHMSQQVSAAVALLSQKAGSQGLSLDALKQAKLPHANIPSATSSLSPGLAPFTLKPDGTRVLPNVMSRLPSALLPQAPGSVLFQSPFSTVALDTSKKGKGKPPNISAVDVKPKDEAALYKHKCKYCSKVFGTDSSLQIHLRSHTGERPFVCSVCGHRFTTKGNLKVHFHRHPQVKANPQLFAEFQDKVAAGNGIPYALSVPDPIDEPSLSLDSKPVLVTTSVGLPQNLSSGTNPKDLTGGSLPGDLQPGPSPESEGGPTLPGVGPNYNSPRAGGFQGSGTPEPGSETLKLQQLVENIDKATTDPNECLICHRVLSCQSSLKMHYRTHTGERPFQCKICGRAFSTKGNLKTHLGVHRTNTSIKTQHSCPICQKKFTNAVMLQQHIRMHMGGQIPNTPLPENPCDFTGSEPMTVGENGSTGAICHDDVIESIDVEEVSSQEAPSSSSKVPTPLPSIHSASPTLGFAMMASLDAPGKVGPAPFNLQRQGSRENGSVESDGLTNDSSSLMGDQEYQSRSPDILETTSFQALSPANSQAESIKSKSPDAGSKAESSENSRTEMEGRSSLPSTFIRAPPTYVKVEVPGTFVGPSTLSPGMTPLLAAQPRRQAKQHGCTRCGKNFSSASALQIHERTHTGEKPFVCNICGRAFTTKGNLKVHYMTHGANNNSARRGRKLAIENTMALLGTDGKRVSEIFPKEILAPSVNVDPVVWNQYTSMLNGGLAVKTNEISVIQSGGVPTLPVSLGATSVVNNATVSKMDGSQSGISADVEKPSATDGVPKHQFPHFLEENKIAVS
Technique: universal PBM
Molecule type: double-stranded DNA, one strand shown
Sample: in vitro
Concentration: 600 nM
Setting: 8-mer, flanks averaged, mean of replicates
Reading: higher = stronger binding
| Sequence | E-score |
| --- | --- |
| GCGTAGTA | -0.0485 |
| TCGCCACA | -0.126 |
| TGAAAAAA | 0.321 |
| ACGATTGG | 0.138 |
| CTCTATAA | 0.329 |
| GTACACAA | 0.102 |
| AAAATCTG | 0.121 |
| CAACACGG | -0.163 |
| AGCCGGAC | -0.294 |
| GTAGGGGA | -0.189 |
| CAGCTGTA | -0.172 |
| ATCCTCAC | 0.011 |
| CACTAGTC | -0.184 |
| AGCGCTAT | 0.131 |
| TGGCAACA | 0.116 |
| GGACATAC | -0.00628 |
| ATTATACC | 0.263 |
| AGATTTCA | 0.192 |
| AAATATCA | 0.354 |
| ATAGCATC | 0.198 |
| GAGGTGGC | -0.168 |

Mixed results
| Substance | target | test | system | conditions | how to read | quantity | value |
| --- | --- | --- | --- | --- | --- | --- | --- |
| PhoQ, residues 284 288 289 292 302 303 GANMMA | PhoP, residues 12 14 15 18 19 NIMAP (Escherichia coli, UniProt P23836) | Sort-seq, measured: YFP reporter | E. coli | PhoQ-PhoP variant library, together with: 10 µM Mg2+ | relative to: high Mg2+ state, higher = stronger signaling | fold induction | 0.769 |
